Earlier results that unrelated publications cite.
Protocols differ between the studies behind these lines. ± marks the error that the study gave. Converted amounts (≈) assume the structure as drawn.

CCCCCCCCCCCCCC[N+](C)(C)CCCNC(=O)[C@H]1NC(=O)[C@H]2NC(=O)[C@H](NC(=O)[C@@H]3NC(=O)[C@H](CC(N)=O)NC(=O)[C@H](NC(=O)[C@@H](CC(C)C)NC)[C@H](O)c4ccc(c(Cl)c4)Oc4cc3cc(c4O[C@@H]3O[C@H](CO)[C@@H](O)[C@H](O)[C@H]3O[C@H]3C[C@](C)(N)[C@H](O)[C@H](C)O3)Oc3ccc(cc3Cl)[C@H]2O)c2ccc(O)c(c2)-c2c(O)cc(O)cc21  activity improvement (Enterococcus; VanA vancomycin-resistant; concentration not given; reference: vancomycin): 125 fold
CC[C@H](C)[C@@H]1NC(=O)[C@H](CCC(N)=O)NC(=O)[C@H](CCC(=O)O)NC(=O)[C@H](CCC(=O)O)NC(=O)[C@H](CCCCN)NC(=O)[C@@H]2CCCN2C(=O)[C@H](CC(C)C)NC(=O)[C@@H](NC(=O)[C@@H](N)CO)CSSC[C@@H](C(=O)N[C@@H](CCCNC(=N)N)C(=O)N[C@@H](CCCNC(=N)N)C(=O)N[C@@H](CCCCN)C(=O)N[C@@H](CCCCN)C(=O)O)NC(=O)[C@H](CCCCN)NC(=O)[C@H](CCCNC(=N)N)NC(=O)CNC(=O)[C@H](CCCNC(=N)N)NC(=O)[C@H]([C@@H](C)O)NC(=O)[C@H](CO)NC(=O)[C@H](CCCCN)NC(=O)CNC1=O  MBC (Staphylococcus aureus; ATCC 8530; pH 7.4): 17 µM (≈ 44 µg/mL)
Cc1cc(C#N)cc(C)c1Oc1nc(NC2CCN(Cc3ccc(S(N)(=O)=O)cc3)CC2)nc2ccsc12  selectivity index (HIV-1; IIIB; reference: CC50 over EC50): > 159000
CCCCc1cc2c(=O)c(C(=O)OC)c[nH]c2cc1OCCOc1ccccc1  ED50 (Plasmodium; blood schizonticidal activity; rodent malaria model): 0.05 mg/kg
O=C(NCCNCCO)c1cn(Cc2ccccc2)c2cc(Cl)c(OCc3ccc(C(F)(F)F)cc3)cc2c1=O  MIC (Acinetobacter baumannii; growth; ATCC 19606): 32 µg/mL (≈ 55.7 µM)
COc1ccc(/C=C(\C)[N+](=O)[O-])cc1  IC50 (Leishmania donovani; parasite growth; promastigote): 0.0405 ± 0.00147 µM
COc1cc2c(cc1-c1c(C)noc1C)ncc1[nH]c(=O)n([C@H](C)c3ccccn3)c12  survival (Trypanosoma brucei; mouse; dose not given, pretreated trypanosomes injected): 80%
O=C(O)[C@@H]1Cc2c([nH]c3ccccc23)[C@@H](c2ccc(C(F)(F)F)cc2C(F)(F)F)N1  IC50 (Plasmodium falciparum; parasite growth; Dd2): > 10 µM
O=C(NNC(=S)Nc1ccc(C(F)(F)F)cc1)c1ccc(-c2nnc(-c3ccc4ncccc4c3)o2)cc1  IC50 (Leishmania): 0.1 ± 0.001 µM
C[C@H](NC(=O)[C@H](Cc1c[nH]cn1)NC(=O)[C@H](CO)NC(=O)[C@@H](N)CC(=O)O)C(=O)N[C@@H](CCCCN)C(=O)N[C@@H](CCCNC(=N)N)C(=O)N[C@@H](Cc1c[nH]cn1)C(=O)N[C@@H](Cc1c[nH]cn1)C(=O)NCC(=O)N[C@@H](Cc1ccc(O)cc1)C(=O)N[C@@H](CCCCN)C(=O)N[C@@H](CCCNC(=N)N)C(=O)N[C@@H](CCCCN)C(=O)N[C@@H](Cc1ccccc1)C(=O)N[C@@H](Cc1c[nH]cn1)C(=O)N[C@@H](CCC(=O)O)C(=O)N[C@@H](CCCCN)C(=O)N[C@@H](Cc1c[nH]cn1)C(=O)N[C@@H](Cc1c[nH]cn1)C(=O)N[C@@H](CO)C(=O)N[C@@H](Cc1c[nH]cn1)C(=O)N[C@@H](CCCNC(=N)N)C(=O)NCC(=O)N[C@@H](Cc1ccc(O)cc1)C(=O)O  binding sites per cell (Porphyromonas gingivalis; 381; concentration not given): ~3600
CC[C@H](C)[C@@H]1NC(=O)[C@H](CCC(N)=O)NC(=O)[C@H](CCCCN)NC(=O)[C@H](Cc2ccc(O)cc2)NC(=O)[C@H](CCCNC(=N)N)NC(=O)[C@H](CCCNC(=N)N)NC(=O)[C@@H]2CCCN2C(=O)[C@@H](NC(=O)[C@@H](N)Cc2ccccc2)CSSC[C@@H](C(=O)N[C@@H](CCCCN)C(=O)O)NC(=O)[C@H](CCCCN)NC(=O)[C@H]([C@@H](C)O)NC(=O)CNC(=O)[C@@H]2CCCN2C(=O)[C@H](CC(C)C)NC(=O)CNC(=O)[C@H]([C@@H](C)O)NC(=O)CNC1=O  MBC (Escherichia coli; K-12 MG1655; pH 7.4): 19 µM (≈ 40.9 µg/mL)
CC/C(=C\c1ccc(O)cc1)[N+](=O)[O-]  IC50 (Leishmania donovani; parasite growth; amastigote): 0.0616 ± 0.00802 µM
C[C@@](CCc1ccc(-c2ccccc2)cc1)(C(=O)NO)S(C)(=O)=O  MIC90 (Pseudomonas aeruginosa; PAO1 M62R): 4 µg/mL (≈ 11.5 µM)
CN1CCC2(CC1)c1ccccc1N(Cc1ccc(C(=O)NO)cc1)C2c1ccc(Cl)cc1 (centres unmarked)  LD50 (Schistosoma mansoni; schistosomula): 13.3 µM
Cc1onc(-c2c(Cl)cccc2Cl)c1C(=O)Nc1ccc(F)cc1C(=O)NN=Cc1cccs1  antiviral activity (Cucumber mosaic virus; concentration not given; reference: ningnanmycin): increased
CC(C)C[C@H](NC(=O)[C@H](CCCNC(=N)N)NC(=O)[C@@H]1CCCN1C(=O)[C@H](CCCCN)NC(=O)[C@H](Cc1ccccc1)NC(=O)CCC(=O)Nc1ccc2c(c1)Cc1cc(Br)ccc1-2)C(N)=O  relative potency (Helicoverpa zea; pupal diapause termination; pupae; reference: native diapause hormone): ~50 fold
O=C(O)[C@@H]1Cc2c([nH]c3ccccc23)[C@@H](c2ccc(F)cc2F)N1  IC50 (Plasmodium falciparum; parasite growth; Dd2): 0.78 ± 0.175 µM
CO[C@@H]1CN(c2ccc(C#CC3(O)CN4CCC3CC4)c(Cc3ccccc3)n2)C[C@H]1O (some centres unmarked)  IC50 (Leishmania infantum; amastigote growth): 17.3 µM
COc1ccc(NC2=C(O)C(=O)c3ccccc3C2=O)cc1  mean survival time (Plasmodium berghei; infected mice; dose not given): 26 ± 4 days
Cc1c(Cc2c(Cl)cccc2Cl)c(=O)ccn1Cc1cccs1  MIC (Staphylococcus aureus; methicillin-resistant): 1 µg/mL (≈ 2.75 µM)
CN1CCC2(CC1)c1ccccc1N(Cc1ccc(C(=O)NO)cc1)C2c1cccc(Cl)c1 (centres unmarked)  LD50 (Schistosoma mansoni; schistosomula): 20.6 µM
CNC(=O)c1cccc(-c2ccc(O[C@H]3O[C@H](CO)[C@@H](O)[C@H](O)[C@@H]3O)cc2)c1  IC50 (Escherichia coli; biofilm formation; UPEC UTI89): 1.35 µM
CCN(CCNc1ccnc2cc(Cl)ccc12)CCNS(=O)(=O)c1cccc2c(N(C)C)cccc12  IC50 (Plasmodium falciparum; parasite growth; Dd2, chloroquine-resistant): 0.0227 µM

A few entries again:
CC/C(=C\c1ccc(O)cc1)[N+](=O)[O-]  IC50 (Leishmania donovani; parasite growth; amastigote): 0.0616 ± 0.00802 µM
O=C(NNC(=S)Nc1ccc(C(F)(F)F)cc1)c1ccc(-c2nnc(-c3ccc4ncccc4c3)o2)cc1  IC50 (Leishmania): 0.1 ± 0.001 µM
